Measured values gathered from unrelated publications.
Protocols differ between the studies behind these lines. Values joined by “and” are separate records of one study, mostly repeats; a detail may differ. Numbers after ± are the reported error.
Kir3.1/Kir3.4: Kir3.1/Kir3.4 (Homo sapiens, UniProt P48544+P48549)
UniProt P48544, sequence (whole entry, looked up): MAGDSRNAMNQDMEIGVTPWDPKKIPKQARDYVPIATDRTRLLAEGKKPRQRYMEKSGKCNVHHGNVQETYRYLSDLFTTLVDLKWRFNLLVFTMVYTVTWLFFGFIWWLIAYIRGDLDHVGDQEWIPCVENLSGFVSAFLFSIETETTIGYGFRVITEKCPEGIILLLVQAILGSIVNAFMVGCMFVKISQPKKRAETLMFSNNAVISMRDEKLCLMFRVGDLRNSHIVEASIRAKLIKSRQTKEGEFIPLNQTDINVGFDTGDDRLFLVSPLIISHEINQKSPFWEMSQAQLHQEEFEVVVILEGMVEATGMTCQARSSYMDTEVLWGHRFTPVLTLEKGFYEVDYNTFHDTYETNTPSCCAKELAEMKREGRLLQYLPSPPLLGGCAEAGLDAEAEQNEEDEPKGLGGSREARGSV
UniProt P48549, sequence (whole entry, looked up): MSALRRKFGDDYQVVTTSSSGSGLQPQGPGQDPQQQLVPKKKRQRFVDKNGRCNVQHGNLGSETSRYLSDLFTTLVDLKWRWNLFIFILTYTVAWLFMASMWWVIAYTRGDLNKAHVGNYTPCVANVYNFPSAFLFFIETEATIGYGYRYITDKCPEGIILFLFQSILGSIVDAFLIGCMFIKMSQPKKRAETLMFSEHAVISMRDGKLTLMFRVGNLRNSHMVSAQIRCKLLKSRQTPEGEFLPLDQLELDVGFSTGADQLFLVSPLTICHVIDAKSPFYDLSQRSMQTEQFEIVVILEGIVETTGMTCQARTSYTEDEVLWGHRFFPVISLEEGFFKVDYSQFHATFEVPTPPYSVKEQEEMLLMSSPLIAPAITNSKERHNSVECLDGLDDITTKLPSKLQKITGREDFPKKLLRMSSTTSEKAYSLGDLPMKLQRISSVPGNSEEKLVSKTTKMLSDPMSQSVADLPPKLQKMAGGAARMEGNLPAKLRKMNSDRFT
T1: riboswitch RNA yjdF aptamer domain (Bacillus subtilis); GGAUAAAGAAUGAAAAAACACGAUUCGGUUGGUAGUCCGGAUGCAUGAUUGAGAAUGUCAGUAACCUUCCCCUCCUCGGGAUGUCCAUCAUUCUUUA
UniProt P51575, sequence (whole entry, unmodified, looked up): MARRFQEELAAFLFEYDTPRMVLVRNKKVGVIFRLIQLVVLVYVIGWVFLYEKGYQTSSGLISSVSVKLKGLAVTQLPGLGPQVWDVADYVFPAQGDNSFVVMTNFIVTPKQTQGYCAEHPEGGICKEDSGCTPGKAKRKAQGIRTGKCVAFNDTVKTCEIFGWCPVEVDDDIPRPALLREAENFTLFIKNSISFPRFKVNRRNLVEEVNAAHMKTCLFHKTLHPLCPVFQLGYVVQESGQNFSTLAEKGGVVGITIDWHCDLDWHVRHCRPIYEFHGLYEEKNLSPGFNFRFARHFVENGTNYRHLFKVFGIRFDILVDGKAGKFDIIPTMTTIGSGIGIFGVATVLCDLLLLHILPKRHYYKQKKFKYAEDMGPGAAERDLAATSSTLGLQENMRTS
UniProt Q16774, sequence (whole entry, looked up): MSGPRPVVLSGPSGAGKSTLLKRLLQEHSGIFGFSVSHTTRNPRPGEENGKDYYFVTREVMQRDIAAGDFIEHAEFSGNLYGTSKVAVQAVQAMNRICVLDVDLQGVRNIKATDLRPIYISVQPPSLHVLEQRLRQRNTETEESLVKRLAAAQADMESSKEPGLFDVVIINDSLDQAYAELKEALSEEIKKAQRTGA
UniProt Q62351, sequence (whole entry, looked up): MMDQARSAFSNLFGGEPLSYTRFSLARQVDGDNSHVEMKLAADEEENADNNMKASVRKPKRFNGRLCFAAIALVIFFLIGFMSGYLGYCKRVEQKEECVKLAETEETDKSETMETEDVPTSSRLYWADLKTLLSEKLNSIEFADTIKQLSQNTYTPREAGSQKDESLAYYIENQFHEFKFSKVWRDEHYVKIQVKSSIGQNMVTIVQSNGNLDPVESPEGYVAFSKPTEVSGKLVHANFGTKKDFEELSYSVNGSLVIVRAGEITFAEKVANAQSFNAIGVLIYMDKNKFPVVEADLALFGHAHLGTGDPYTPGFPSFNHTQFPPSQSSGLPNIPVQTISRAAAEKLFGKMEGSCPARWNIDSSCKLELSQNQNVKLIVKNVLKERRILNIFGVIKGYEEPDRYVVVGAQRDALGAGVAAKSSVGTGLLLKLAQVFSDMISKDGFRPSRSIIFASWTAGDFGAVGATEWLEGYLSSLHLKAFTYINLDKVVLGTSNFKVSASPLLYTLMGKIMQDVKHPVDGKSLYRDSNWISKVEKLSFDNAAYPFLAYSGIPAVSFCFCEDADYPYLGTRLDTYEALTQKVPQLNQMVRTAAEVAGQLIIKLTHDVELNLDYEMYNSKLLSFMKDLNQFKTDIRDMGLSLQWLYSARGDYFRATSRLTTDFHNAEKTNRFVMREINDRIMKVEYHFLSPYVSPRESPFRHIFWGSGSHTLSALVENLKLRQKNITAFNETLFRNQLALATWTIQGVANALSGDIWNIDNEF
UniProt Q99250, sequence (whole entry, looked up): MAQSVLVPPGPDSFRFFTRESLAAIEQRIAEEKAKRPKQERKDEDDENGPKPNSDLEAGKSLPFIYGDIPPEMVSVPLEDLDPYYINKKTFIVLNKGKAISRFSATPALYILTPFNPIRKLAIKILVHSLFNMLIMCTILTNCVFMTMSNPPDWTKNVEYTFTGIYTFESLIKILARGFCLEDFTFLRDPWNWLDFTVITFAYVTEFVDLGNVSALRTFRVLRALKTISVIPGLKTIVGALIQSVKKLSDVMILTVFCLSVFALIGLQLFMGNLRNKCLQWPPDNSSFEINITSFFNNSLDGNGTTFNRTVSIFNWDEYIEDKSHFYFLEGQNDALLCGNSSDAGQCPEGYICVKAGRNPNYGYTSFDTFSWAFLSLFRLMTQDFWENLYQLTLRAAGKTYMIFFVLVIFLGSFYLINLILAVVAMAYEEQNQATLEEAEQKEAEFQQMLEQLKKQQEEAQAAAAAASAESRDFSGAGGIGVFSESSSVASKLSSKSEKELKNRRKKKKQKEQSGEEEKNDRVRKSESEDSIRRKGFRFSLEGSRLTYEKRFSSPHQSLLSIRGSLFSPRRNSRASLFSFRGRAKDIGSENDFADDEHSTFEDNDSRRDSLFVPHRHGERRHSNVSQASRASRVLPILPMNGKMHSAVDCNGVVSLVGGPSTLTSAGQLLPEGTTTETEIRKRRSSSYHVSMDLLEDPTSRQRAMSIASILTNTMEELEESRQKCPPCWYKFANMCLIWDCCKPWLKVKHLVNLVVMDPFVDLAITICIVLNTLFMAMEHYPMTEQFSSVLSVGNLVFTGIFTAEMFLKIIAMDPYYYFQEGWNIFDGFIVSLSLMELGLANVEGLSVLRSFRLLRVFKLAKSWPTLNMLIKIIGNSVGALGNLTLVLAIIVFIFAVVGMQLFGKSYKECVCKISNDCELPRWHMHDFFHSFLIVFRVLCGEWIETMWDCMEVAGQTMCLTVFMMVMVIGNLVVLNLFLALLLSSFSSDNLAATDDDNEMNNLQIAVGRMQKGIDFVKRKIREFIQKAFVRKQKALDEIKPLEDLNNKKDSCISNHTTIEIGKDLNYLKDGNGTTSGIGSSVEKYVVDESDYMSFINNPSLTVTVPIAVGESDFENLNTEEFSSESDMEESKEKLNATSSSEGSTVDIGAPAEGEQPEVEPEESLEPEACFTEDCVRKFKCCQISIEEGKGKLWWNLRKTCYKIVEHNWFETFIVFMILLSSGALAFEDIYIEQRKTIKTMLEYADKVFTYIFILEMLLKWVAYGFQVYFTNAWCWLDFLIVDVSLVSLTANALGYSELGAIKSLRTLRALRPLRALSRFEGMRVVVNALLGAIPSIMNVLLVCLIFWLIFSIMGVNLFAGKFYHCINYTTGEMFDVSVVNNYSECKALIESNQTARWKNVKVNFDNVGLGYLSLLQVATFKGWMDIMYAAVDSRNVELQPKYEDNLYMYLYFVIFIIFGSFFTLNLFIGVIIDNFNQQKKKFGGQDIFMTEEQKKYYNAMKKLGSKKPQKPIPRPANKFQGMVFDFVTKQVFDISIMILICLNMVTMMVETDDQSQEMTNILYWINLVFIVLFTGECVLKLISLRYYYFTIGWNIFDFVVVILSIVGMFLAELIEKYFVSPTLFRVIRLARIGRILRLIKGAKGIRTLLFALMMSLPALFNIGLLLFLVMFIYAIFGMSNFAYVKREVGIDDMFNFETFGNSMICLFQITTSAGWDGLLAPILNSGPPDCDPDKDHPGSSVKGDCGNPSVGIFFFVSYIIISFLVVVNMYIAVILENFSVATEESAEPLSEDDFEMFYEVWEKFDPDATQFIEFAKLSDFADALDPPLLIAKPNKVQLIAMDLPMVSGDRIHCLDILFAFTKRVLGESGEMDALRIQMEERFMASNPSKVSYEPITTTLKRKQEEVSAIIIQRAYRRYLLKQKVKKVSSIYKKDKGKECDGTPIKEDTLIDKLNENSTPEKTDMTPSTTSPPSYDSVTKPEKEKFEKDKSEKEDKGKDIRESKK
UniProt Q9HBX9, sequence (whole entry, looked up): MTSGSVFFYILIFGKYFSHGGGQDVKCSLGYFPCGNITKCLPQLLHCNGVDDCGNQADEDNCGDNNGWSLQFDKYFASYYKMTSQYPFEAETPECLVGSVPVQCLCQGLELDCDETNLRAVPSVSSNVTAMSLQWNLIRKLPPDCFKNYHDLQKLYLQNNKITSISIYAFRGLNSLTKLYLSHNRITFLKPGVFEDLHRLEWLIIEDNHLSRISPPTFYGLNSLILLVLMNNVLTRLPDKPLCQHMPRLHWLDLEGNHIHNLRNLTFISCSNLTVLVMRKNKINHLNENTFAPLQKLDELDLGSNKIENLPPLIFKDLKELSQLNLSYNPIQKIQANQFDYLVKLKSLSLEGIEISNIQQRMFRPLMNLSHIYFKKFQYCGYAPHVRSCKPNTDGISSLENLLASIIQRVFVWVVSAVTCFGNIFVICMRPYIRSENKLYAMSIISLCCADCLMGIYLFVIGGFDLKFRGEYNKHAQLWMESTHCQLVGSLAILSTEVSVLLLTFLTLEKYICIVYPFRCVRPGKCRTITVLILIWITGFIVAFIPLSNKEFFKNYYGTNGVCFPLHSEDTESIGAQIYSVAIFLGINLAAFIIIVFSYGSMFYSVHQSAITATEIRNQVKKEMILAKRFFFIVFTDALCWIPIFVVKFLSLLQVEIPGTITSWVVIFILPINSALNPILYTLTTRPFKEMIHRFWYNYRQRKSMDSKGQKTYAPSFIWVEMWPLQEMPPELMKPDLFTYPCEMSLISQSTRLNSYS

`CCc1nn(CCCN2CCN(c3cccc(Cl)c3)CC2)c(=O)n1CCOc1ccccc1` — result for Vmax: “decreased” (Sodium-dependent dopamine transporter (SLC6A3, Homo sapiens, UniProt Q01959); [3H]dopamine uptake, inhibitor, uptake kinetics; 0.5 µM; baseline: control).
With `COc1cc(/C=C2\SC(=O)N(Cc3nc4ccccc4s3)C2=O)cc(OC)c1OC` the log IC50 was 2.43 log nM (Aldo-keto reductase family 1 member B1 (AKR1B1, Homo sapiens, UniProt P15121); enzyme activity, inhibitor).
For `Oc1ccccc1-c1n[nH]cc1-c1ccnc2ccccc12`, “log2 fold change” read 0 (Serine/threonine-protein kinase CLA4 (CLA4, Candida albicans, UniProt O14427); kinase binding, MIB/MS competition; Candida albicans lysate; 10 µM; baseline: DMSO, negative = stronger binding).
The Hill coefficient of `COc1cc2ccc(=O)oc2cc1O` is reported as 2 ± 0.6 (uncharacterized protein (Solanum tuberosum, UniProt M0ZZL3); enzyme activity; inhibitory mode parameter).
`CCc1cc(NC(=O)COc2cc(Cl)ccc2Cl)n(C2CCC(F)(F)CC2)n1` gave an Emax of 67% (Kir3.1/Kir3.4; thallium flux, activator; HEK293; baseline: standard compound).
The calcium influx of `Nc1ncnc2c1ncn2[C@@H]1O[C@H](COP(=O)(O)CP(=O)(O)OP(=O)(O)O)[C@@H](O)[C@H]1O` is reported as 2% and 4.12% and 1.13% (P2X purinoceptor 1 (P2RX1, Homo sapiens, UniProt P51575, R139P); calcium influx; 100 nM; baseline: ionomycin response).
`CC1CCCN(C(=O)c2cc3ncccn3n2)C1` (stereo not drawn) — result for “log fold enrichment”: 0.00259 (Protein transport protein Sec31A (SEC31A, Homo sapiens, UniProt O94979); binding, affinity selection mass spectrometry; baseline: other proteins in batch).
`C[S+](CC[C@H](N)C(=O)[O-])C[C@H]1O[C@@H](n2cnc3c(N)ncnc32)[C@H](O)[C@@H]1O` (stereo partly drawn) has an apparent Km of 6.7 ± 0.8 µM (Histone-lysine N-methyltransferase 2C (KMT2C, Homo sapiens, UniProt Q8NEZ4); substrate, enzyme-coupled methylation; with: H3 peptide 50 µM).
`C=CC(=O)N1CCC(COCC(=O)N2CCN(c3nc(-c4cnc(N)nc4C(F)F)nc(N4CCOC[C@@H]4C)n3)CC2)CC1` has a remaining binding of 97% (Serine/threonine-protein kinase TNNI3K (TNNI3K, Homo sapiens, UniProt Q59H18); KINOMEscan; 1 µM).
Under “association rate constant”, `C[n+]1cn([C@@H]2O[C@H](COP(=O)(O)O)[C@@H](O)[C@H]2O)c2nc(N)[nH]c(=O)c21` is recorded as 3.08e+07 ± 2e+06 M⁻¹ s⁻¹ (m7GpppX diphosphatase (DCPS, Homo sapiens, UniProt Q96C86); binding, stopped-flow fluorescence; 10% glycerol; 20 °C).
The Emax of `CCCCC[C@H](O)/C=C/[C@H]1[C@H](O)CC(=O)[C@@H]1C/C=C\CCCC(=O)O` is reported as 103 ± 3.17% (Prostaglandin E2 receptor EP1 subtype (PTGER1, Homo sapiens, UniProt P34995, F334L/G92S/P39S); IP1 accumulation, agonist; AD293; 1 h; baseline: wild type receptor).
For `CN1C(=O)/C(=C/c2cc(F)c(O)c(F)c2)N=C1/C=N/O`, the Kd was 4.5 µM (T1, riboswitch RNA yjdF aptamer domain (Bacillus subtilis); fluorescence titration).
For `CC[C@H](C)[C@H](NC(=O)[C@H](CCC(=O)O)NC(=O)[C@H](C)NC(=O)[C@@H](NC(=O)[C@H](Cc1c[nH]cn1)NC(=O)[C@H]1CCC[C@@H]1NC(=O)[C@H](CCC(=O)O)NC(=O)[C@H](C)NC(=O)[C@H]1CCC[C@@H]1NC(=O)[C@H](CC(C)C)NC(=O)[C@H](Cc1c[nH]cn1)NC(=O)[C@H](Cc1c[nH]cn1)NC(=O)[C@H]1CCC[C@@H]1NC(=O)[C@H](Cc1ccccc1)NC(=O)[C@H](Cc1ccccc1)NC(=O)[C@H](CCCNC(=N)N)NC(=O)[C@H](CCCNC(=N)N)NC(=O)[C@H](CCCNC(=N)N)NC(=O)[C@H]1CCC[C@@H]1NC(=O)[C@H](CC(=O)O)NC(=O)[C@H](CCC(N)=O)NC(=O)[C@@H](NC(=O)C[C@H](Cc1c[nH]c2ccccc12)NC(=O)[C@H](CCCCN)NC(=O)[C@@H](Cc1c[nH]c2ccccc12)NC(=O)[C@H](CC(C)C)NC(=O)[C@H](CC(=O)O)NC(=O)[C@H](Cc1c[nH]cn1)NC(=O)[C@H](CC(C)C)NC(=O)C[C@@H](N)CC(C)C)[C@@H](C)CC)[C@@H](C)O)C(N)=O`, cAMP formation read “decreased” (Parathyroid hormone/parathyroid hormone-related peptide receptor (PTH1R, Homo sapiens, UniProt Q03431); antagonist, GloSensor cAMP; HEK293 expressing PTH1R; concentration not given, with: PTH(1-34)).
For `O=C(COc1cccc(Cl)c1Cl)NCc1cccs1`, activity read “inactive” (Kir3.1/Kir3.4; activator, thallium flux; HEK293; concentration not given).
With `CC(C)C[C@H](N)C(=O)O` the binding stoichiometry was 0.79 ± 0.04 mol/mol LeuT (snf (Aquifex aeolicus, UniProt O67854, L400C); scintillation proximity; concentration not given, 400 nM protein).
The Ki/Km ratio of `CCCCCCc1ccc([C@H]2CC[C@H]([N+](C)(C)CCC)CC2)cc1.[I-]` is reported as 8.6 (Sphingosine kinase 2 (SPHK2, Homo sapiens, UniProt Q9NRA0); inhibitor, radiometric flash-plate; cell lysate; with: sphingosine 5 µM).
`Cc1cc(Nc2ccc(S(F)(F)(F)(F)F)cc2)n2nc(C(C)C)nc2n1` has a robust Z-score of 19.1 (Dihydroorotate dehydrogenase (quinone) (pyrD, Acinetobacter baumannii, UniProt B7GZW7); enzyme activity, inhibitor, colorimetric HTS, item: DCIP reduction; 3 µM; direction not given).
`Nc1nc2c(ncn2[C@@H]2O[C@H](COP(=O)(O)O)[C@@H](O)[C@H]2O)c(=O)[nH]1` gave a reaction velocity of 0.0679 µM/s and 0.0648 µM/s and 0.0688 µM/s (GUK1 (Homo sapiens, UniProt Q16774); enzyme activity, NADH-coupled; 2000 µM, with: KCl 150 mM).
For `CC(=C/C(=O)O)/C=C/C=C(\C)C1C=C2C(C)(C)CCCC2(C)O1` (stereo not drawn), “plasma membrane localization” read 0.89 (Rhodopsin (RHO, Homo sapiens, UniProt P08100, T17M); immunostaining, item: opsin; COS-7 transfected; 20.00 µM, unit not given; baseline: surface over total stained cells).
`CCOC(=O)c1c(NC(=O)CNC(C)C)sc2c1CCCCC2` — result for “fast inactivation time constant”: 1.4 ± 0.3 ms (Sodium channel protein type 2 subunit alpha (SCN2A, Homo sapiens, UniProt Q99250); sodium current, whole-cell voltage clamp; HEK cells; 20 µM).
`N[C@@H](CC(=O)Nc1ccc2ccccc2c1)C(=O)O`: hydrolysis “inactive” (rat aminopeptidase III; substrate; concentration not given, pH 7.0).
For `CC[C@@H](C)[C@@H](NC(=O)[C@@H](Cc1ccc(O)cc1)NC(=O)[C@H]1CCCN1C(=O)[C@@H](CCCNC(=N)N)NC(=O)[C@H](N)Cc1c[nH]cn1)C(=O)N[C@H](C)C(=O)N[C@H](Cc1c[nH]cn1)C(=O)N[C@H](CCCNC(=N)N)C(=O)N[C@@H](C(=O)N[C@H](Cc1ccc(O)cc1)C(=O)N[C@H](CO)C(=O)N[C@H](Cc1ccccc1)C(N)=O)C(C)C`, “surface TFRC expression” read 0.965 and 0.926 (Transferrin receptor protein 1 (Tfrc, Mus musculus, UniProt Q62351); flow cytometry; DC2.4; 6 h, pH 6, unit not given; baseline: 0 h).
The remaining activity of `CNc1ncc2c(/C=C/C(=O)N3CCC(OC)CC3)nn(Cc3cccc(C(F)(F)F)c3)c2n1` is reported as 97% (Insulin receptor (INSR, Homo sapiens, UniProt P06213); kinase activity, inhibitor; 1 µM; baseline: untreated control).
`CC[C@H](C)[C@@H]1NC(=O)[C@H](C)NC(=O)[C@H]([C@@H](C)CC)NC(=O)[C@H](CCC(N)=O)NC(=O)[C@H](C)NC(=O)[C@H](CCCNC(=N)N)NC(=O)[C@H](C(C)C)NC(=O)[C@H](CC(C)C)NC(=O)[C@H](CCC(=O)O)NC(=O)[C@H](CCCNC(=N)N)NC(=O)CNC(=O)[C@@H](NC(=O)[C@H](CC(C)C)NC(=O)[C@H](CCCCN)NC(=O)[C@@H](NC(=O)[C@@H](NC(=O)[C@H](CCC(=O)O)NC(=O)[C@H](CCC(=O)O)NC(=O)[C@H](CCSC)NC(=O)[C@H](Cc2c[nH]c3ccccc23)NC(=O)[C@H](CO)NC(=O)[C@@H](N)CC(=O)O)C(C)C)[C@@H](C)CC)CSSC[C@@H]2NC(=O)[C@@H](NC(=O)[C@H](CCCCN)NC(=O)[C@H](CC(N)=O)NC(=O)[C@H](C)NC(=O)[C@H](CC(C)C)NC(=O)[C@H](C)NC(=O)[C@H](CO)NC(=O)[C@H](Cc3ccc(O)cc3)NC(=O)[C@H](CC(C)C)NC(=O)[C@H](CCC(N)=O)NC(=O)c3ccc(-c4c5ccc(=[N+](C)C)cc-5oc5cc(N(C)C)ccc45)c(C(=O)[O-])c3)CSSC[C@H](NC(=O)CNC(=O)[C@H](C(C)C)NC(=O)[C@H](Cc3c[nH]cn3)NC2=O)C(=O)N[C@@H]([C@@H](C)O)C(=O)N[C@@H](CCCCN)C(=O)N[C@@H](CCCNC(=N)N)C(=O)N[C@@H](CO)C(=O)N[C@@H](CC(C)C)C(=O)N[C@@H](C)C(=O)N[C@@H](CCCNC(=N)N)C(=O)N[C@@H](Cc2ccccc2)C(=O)N[C@H](C(=O)O)CSSC[C@@H](C(=O)NCC(=O)N[C@@H](CCSC)C(=O)N[C@@H](CO)C(=O)N[C@H](C(=O)N[C@@H](Cc2c[nH]c3ccccc23)C(=O)N[C@@H](CO)C(=O)O)[C@@H](C)O)NC1=O`: “fast dissociation fraction” 20.1% (Relaxin receptor 1 (RXFP1, Homo sapiens, UniProt Q9HBX9); binding, NanoBRET; concentration not given, with: relaxin 1 µM).
